Assay results of several laboratories.
Numbered parts are unrelated; each lists some results of a single study. Substitutions count along the parent as printed.

Block 1 — method: RNA Bind-n-Seq; form: RNA; medium: in vitro; concentration: 365 nM; baseline: no-protein control; reading: higher = stronger binding
Target: RNA binding protein fox-1 homolog 2, RRM domain, GST-SBP tag (RBFOX2, Homo sapiens, UniProt O43251-10, residues 100-194)
Notes: natural RNA segment, single round, ends assumed
Target sequence (chain): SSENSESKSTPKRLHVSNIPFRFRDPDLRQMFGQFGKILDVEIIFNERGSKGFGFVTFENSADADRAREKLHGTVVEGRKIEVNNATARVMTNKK
Oligonucleotide	RBNS enrichment (R)
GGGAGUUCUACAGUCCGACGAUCAGUAACCUCAAAUUCCUGUUCUUGGUUCUUAUUUAAGCAUGGGUCUUCAUUCAACUCAGAAGGCCUGAUCUGUGUAUAUUCUGGUGUGUAUUGUAUGGUAGCUCUUUGAGUGGAAUUCUCGGGUGCCAA	1.01
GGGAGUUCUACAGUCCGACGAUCACAAAAGAGCCCAAGUUCGCCUCCUACCUGCAUUGCUGACUUGAAUUCACAGUCGCCGAGUCUACCUAGCUUUCUUGGAAGCAGUCUAGCAAAAUUUCUAUUUGUACGUUUGGAAUUCUCGGGUGCCAA	0.532
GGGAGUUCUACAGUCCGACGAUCCCCUAUUCACAACCAGUGCACAGUUUGACACAGUGGCCUCAGGUUCACAGUGCACCAUGUCACUGUGCUAUCCUACGAAAUCAUUUGUUUCUAAGUUGUGUUUAUUCCUGUGGAAUUCUCGGGUGCCAA	0.444
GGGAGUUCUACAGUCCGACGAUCGACGGAGGUCAGGUCUUCCUCUUUCCUGAGACUGGAUCUGUUCAAACAGCAAACGCCCACAGAUGGCCCAGAGGUGGUGGUAGUCAGGGUGUGUGGGUGUUUUUAGGGUUUGGAAUUCUCGGGUGCCAA	1.47
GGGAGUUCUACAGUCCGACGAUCGCCGGCCUCAGGACCCUCCCUGGAGGGGCUGCCACCUCUGCCCUCAUCUCCAGGGCCUUGACCUCACUGGACUGUGACUGUCCUCAGGACACCUGCCCCUCCUCACCUAAUGGAAUUCUCGGGUGCCAA	0.637
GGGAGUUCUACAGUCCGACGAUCAUUAUUUUGUGCAGUUAAUCAAAUUUGCCAAAGUCUUUAUCUGCCCCUUUAACAAGUUGAGUAAAAAUAAAAGGUAUUUUUUAGUCAAUGUGUUCCAUGAUUUUGCUUAAUGGAAUUCUCGGGUGCCAA	0.519
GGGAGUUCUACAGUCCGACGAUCCAUUUUAAUGAUACUCUUCCUUUCUUGAAAGUUACAUGUCCUCAUUUCUGUUUCUGCUUCUCCCUUGGCCAGUGUCAUUGAUGCAGAUCAUUGCAUACAACAGCACAGCAUGGAAUUCUCGGGUGCCAA	5.29
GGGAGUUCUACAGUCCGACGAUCGCAUACUUUGGCUGAACAAACAUUUAUUGGGCACUUCAGCUCAUUAGCACCAGGCAUGUAUAGACACAUGACUCAACUUCAGCAUUUGGAGCCAGCGAGACCAGGAUCCCUGGAAUUCUCGGGUGCCAA	0.27
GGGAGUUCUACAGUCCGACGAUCCUUCUAAAUUGAAGCUUGUUAAAAUAAUCACUGUAGUUAUGUGGUACACUAGUAUUUCUUAAAGCAGAGGUGAGUUGCGGAUAAGGUGGAUAAUAUGUGACUUUAGUCUAUGGAAUUCUCGGGUGCCAA	0.671
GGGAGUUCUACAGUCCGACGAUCAGGAGUUCGCUCUUGCGUUUCUUCCCCUCCCCAAGAAGGGAGGGGGCUACUUCAGGCCCUUCUGUGUGUUGCCUGGCAGGAUACCUUGUCCAACCAGCUACCCACCUCAAUGGAAUUCUCGGGUGCCAA	0.201
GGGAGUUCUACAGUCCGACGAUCACUCUUUCCUUUGUGAGCUGUUAAUCCACAAUUACUGACCAUACUAAUAGUAAGUGUGAUUUGAUUCUAAAUAAUAGGGUAGGUUUGGCUAUAACAGAUGCUUUUAAAGCUGGAAUUCUCGGGUGCCAA	0.374
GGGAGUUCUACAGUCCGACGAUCUUAAACAUUAAACCAAACUUCUGGUUUCCUUUAGACAAUCCAAGAGAAAUAAAAGGCCCUACUUUCAGCUUGGCUUUCUUUGUCCCUUUGUGAAAACUACAUAUUCCCUUUGGAAUUCUCGGGUGCCAA	0.245

Block 2 — method: Spec-seq; form: double-stranded DNA, one strand shown; medium: in vitro; concentration: not given; notes: whole probe, mean of replicates; baseline: not given; reading: lower = stronger binding; shared flanks, not repeated: GAGTCGTCTCGTCAGCAC … CCGTAGAGCACTCAGGTC
Target: POU domain, class 5, transcription factor 1, POU domain (Pou5f1, Mus musculus, UniProt P20263, residues 131-289)
Chain of UniProt P20263 (131-289, looked up): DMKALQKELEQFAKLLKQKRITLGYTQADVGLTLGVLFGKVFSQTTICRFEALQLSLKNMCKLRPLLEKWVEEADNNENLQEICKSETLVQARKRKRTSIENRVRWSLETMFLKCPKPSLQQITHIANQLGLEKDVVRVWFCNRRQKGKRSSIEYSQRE
Oligonucleotide	relative binding energy
CCTGTAAT	0.829 ln ratio
ACGCTAAT	-0.0741 ln ratio
ATGGCTAT	0.494 ln ratio
GAAGTAAT	0.713 ln ratio
ATCATGAT	0.729 ln ratio
ATGCCCTT	0.68 ln ratio
ATGCAGGC	0.192 ln ratio
ATTTTGAT	0.155 ln ratio
ATGGTTAT	0.147 ln ratio
ATGCGTTC	0.241 ln ratio
GATCTAAT	0.454 ln ratio
ATGCAAGT	-0.219 ln ratio
ATCTCGAT	0.715 ln ratio
ATTGGTAT	0.331 ln ratio
CTTATAAT	0.56 ln ratio
ATATAAAT	-0.429 ln ratio
ATGCGAGG	0.236 ln ratio
GGCCTAAT	0.873 ln ratio
ATGCTAAA	-1.14 ln ratio
ATTCGGAT	0.27 ln ratio
CTACTAAT	0.535 ln ratio

Block 3 — method: DHFR PCA, deep sequencing; medium: yeast; added: (+)-ABA 4.8 µM; baseline: wild-type fitted maximum; reading: higher = stronger binding
Target: ABI1, truncated, D143A, DHFR fusion (Arabidopsis thaliana)
Notes: methotrexate growth selection, single substitutions
Starting sequence: PYL1, truncated, DHFR fusion (Arabidopsis thaliana); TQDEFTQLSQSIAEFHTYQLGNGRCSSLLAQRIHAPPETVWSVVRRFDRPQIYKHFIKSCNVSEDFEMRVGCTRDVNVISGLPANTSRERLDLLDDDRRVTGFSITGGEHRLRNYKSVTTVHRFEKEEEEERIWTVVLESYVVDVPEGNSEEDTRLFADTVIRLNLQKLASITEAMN
Change	relative binding score [%]
Q167E	65.6
G148T	27.6
V145M	-3.87
L94M	55.3
P83S	26.2
T73S	55.7
E130D	82.1
E129R	66.1
T160V	15.2
Q7S	73.4
C60I	32.5
F47W	21.6
Q10E	84.5
E128S	80.5
E125Q	84.1

Block 4 — method: protein binding microarray; form: double-stranded DNA, one strand shown; medium: in vitro; concentration: not given; baseline: not given; reading: higher = stronger binding
Target: Histone acetyltransferase KAT6A, both winged helices, GST fusion (KAT6A, Homo sapiens, UniProt Q92794, residues 1-181)
Notes: 8-mer, flanks averaged, mean of 2 arrays, mostly near background
Residues (chain): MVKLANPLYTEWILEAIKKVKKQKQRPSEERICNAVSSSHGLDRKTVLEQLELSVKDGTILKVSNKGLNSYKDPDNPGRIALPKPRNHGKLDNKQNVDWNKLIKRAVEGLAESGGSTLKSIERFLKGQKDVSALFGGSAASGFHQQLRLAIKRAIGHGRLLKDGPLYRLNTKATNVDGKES
Oligonucleotide	E-score
CAGCATCG	-0.0519
AGTTATGA	-0.131
CTGTGAGC	0.0466
CCCATTTA	-0.131
AATCGTGA	-0.0451
CGACTTGA	-0.0912
GGAGGTTA	-0.0801
GCTATGGA	-0.117
TAGTCTCA	-0.12
CCCCACAC	-0.251
AGTCGAGA	-0.104
GAACCGTC	0.152
CGATAAGC	0.119
CTATGTCC	-0.0669
GCTCATCA	-0.0706
AAAAGAGG	-0.203
ATAGTTCG	-0.0995
CCTTTCAC	-0.0351
GTTTTATA	-0.0197
CGGCCACA	0.184
AGCCAAGC	-0.178
GACAAGCA	-0.0245
ACCGCCAT	0.0641
AAAGCCGC	0.298
ATTCGTGA	-0.148

Block 5 — method: competition protein-binding microarray; form: double-stranded DNA, one strand shown; medium: in vitro; concentration: 2 µM; added: Cbf1 competitor, 0.05 µM; reading: higher = stronger binding
Target: Phosphate system positive regulatory protein PHO4, full length, GST-tagged (PHO4, Saccharomyces cerevisiae, UniProt P07270, residues 1-312)
Notes: whole 60-bp probe, lowest competitor level
Residues (chain): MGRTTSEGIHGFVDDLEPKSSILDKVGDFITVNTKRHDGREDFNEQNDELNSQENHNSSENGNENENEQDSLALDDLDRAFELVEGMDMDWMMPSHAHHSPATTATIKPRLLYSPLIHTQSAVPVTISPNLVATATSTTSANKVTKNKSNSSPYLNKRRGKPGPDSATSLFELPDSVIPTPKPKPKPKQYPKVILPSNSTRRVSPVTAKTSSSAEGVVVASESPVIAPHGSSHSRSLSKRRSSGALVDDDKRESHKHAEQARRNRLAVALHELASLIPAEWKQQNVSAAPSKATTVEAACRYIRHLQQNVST
Oligonucleotide	fluorescence intensity [a.u.]
CCGGGACATTATAACAACGTGCAAATGGCGATGATTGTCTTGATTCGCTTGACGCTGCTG	13600
AATTGAAGTGCGAGTCACGTGCAAAGCGACGGTAGTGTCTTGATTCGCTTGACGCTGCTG	16000
TAAGTTGTCAGGTTTCACGTGGCAACTACAAGAAAAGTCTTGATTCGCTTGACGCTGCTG	12900
CTGATGCCCATGGAGACTGTGACGCTAAGAGGAATTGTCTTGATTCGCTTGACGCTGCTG	3760
CACTGACTCAGCAGACACGTGGCTGGGCTCAGGCTGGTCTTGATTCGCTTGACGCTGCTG	18300
GTCCGAGAACCCACCCTCGTGTGGAACTTCTTGAGCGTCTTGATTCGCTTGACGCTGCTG	10200
GACGCGCGACCCGCGCGCGTGCCACTGCAAGCTCTGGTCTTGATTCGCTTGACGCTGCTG	11300
AAAGTAGTATTCCGTCACGTGATGGTGATCCAATTAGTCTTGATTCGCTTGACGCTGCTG	13000
ATCAGGTTCTATCCAATACAAAAAGGAGTATGAAGAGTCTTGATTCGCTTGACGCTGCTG	3110
TGCGCAACAACTTGCAAAGTGGGTGTATGTCTAGAAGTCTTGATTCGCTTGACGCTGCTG	4660
GATTGATTTTTGCGACTCTTGCGGAAAGGTTCGCCGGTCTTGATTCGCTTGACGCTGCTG	2890
CATACCCAACCTTTTCACGTGAGGTAAGATATTTGTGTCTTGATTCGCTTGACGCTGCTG	12200
AAAGCGGTAATTTGTCACTTCACTTCACATATCTATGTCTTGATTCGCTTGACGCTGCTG	3590
TTTTTGTAGAATGTACGCGTGATGGCAGTGCCCTGCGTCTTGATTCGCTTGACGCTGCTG	7500
TCCAGTACGGACTGGCACGTGTGTTCCCACCAGGGTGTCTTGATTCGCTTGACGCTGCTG	19600
TGCGCAACAACTTGTCACCACACTTTATGTCTAGAAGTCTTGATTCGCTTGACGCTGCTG	4540
TGTACACATTACTGGCACGCTCTAATAGTTCGTTTAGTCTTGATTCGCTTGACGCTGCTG	8660
TTTGTTGCAACTATCCGCGTGGCCGATTGAGAGTCCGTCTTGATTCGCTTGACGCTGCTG	10400
AGTAAAAGACGAAAGCACGTTAACAATGGAACACTCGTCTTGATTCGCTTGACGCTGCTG	7980
ATTGTATGAAGATAACGCGTGGTGAATTGGAAATAGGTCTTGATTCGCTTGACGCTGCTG	11800
AAATTACTAAGTTTTCACGTGCCTTACCCCGTATGAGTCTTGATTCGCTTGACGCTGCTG	13700
GAAAACCTGGCTTGACTCGTGATGGCTTATTTAACGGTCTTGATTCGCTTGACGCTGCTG	6460
CTTTCCCGATCTTGTTGAGTGGGTGTAGCACATTTGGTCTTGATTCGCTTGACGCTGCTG	4700
TCTTAAAACGAGGTTCACGTGTAACCTTGGTTGATGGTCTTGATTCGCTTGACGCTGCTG	15200
CGTCCTAGTGATTTTCACGTGTTATCCATGAGGAAGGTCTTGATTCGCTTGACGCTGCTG	14700
